Results gathered from unrelated publications.
Lines come from different studies, so protocols differ. ± marks the error that the study gave.
Target: Acetylcholinesterase (ACHE, Homo sapiens, UniProt P22303)
UniProt P22303, sequence (whole entry, looked up): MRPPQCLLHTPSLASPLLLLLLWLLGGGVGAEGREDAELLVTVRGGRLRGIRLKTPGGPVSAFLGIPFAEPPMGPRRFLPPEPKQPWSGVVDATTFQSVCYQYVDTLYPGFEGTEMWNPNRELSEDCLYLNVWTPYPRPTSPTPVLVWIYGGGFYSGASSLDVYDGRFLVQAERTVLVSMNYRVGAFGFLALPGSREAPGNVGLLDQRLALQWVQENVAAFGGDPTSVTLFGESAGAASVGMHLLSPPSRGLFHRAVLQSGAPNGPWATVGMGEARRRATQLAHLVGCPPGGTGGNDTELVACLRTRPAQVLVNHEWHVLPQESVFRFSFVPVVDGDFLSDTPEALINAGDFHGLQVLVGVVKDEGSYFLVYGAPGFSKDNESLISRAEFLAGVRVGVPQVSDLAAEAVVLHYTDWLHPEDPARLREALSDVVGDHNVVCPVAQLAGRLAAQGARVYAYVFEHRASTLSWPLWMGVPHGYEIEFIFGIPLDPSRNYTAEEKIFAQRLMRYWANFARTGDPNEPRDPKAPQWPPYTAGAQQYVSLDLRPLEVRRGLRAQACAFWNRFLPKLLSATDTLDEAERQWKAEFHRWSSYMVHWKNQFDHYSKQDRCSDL

Compound	assay	conditions	IC50
O=C1c2ccccc2NC(c2cc(Cl)ccc2O)N1N=Cc1cc(Cl)ccc1O (stereo not drawn)	enzyme activity, inhibitor, Ellman	–	14.5 µM
O=C1C=C(OCCCCCCn2cc(CNc3ccc4nccnc4c3)nn2)C(=O)c2ccccc21	enzyme activity, inhibitor, Ellman	–	0.58 µM
COc1c(OC(=O)N(C)c2cccc(Br)c2)cc2oc3cc4c(c(O)c3c(=O)c2c1CC=C(C)C)C=CC(C)(C)O4	enzyme activity, inhibitor	–	15.1 µM
O=C1c2c(O)cc(O)cc2OC2(c3ccc(O)c(O)c3)Oc3cc4oc(-c5ccc(O)cc5)c(O)c(=O)c4c(O)c3C12O (racemic)	enzyme activity, inhibitor, Ellman	–	2.72 µM
COc1cc2c(cc1OC)C(=O)C(=Cc1ccc(N3CCN(C)CC3)cc1)C2	enzyme activity, inhibitor, Ellman	–	0.9 µM
CC(=O)C(=NNc1ccc2c(C)cc(=O)oc2c1)N1CCNCC1	enzyme activity, inhibitor, Ellman	–	137 µM
CCCCc1ccc(N(C)C(=O)Oc2cc3oc4cc5c(c(O)c4c(=O)c3c(CC=C(C)C)c2OC)C=CC(C)(C)O5)cc1	enzyme activity, inhibitor	–	34.5 µM
COc1ccc(O)c(/C=N/N2C(=O)c3ccccc3NC2c2cc(OC)ccc2O)c1 (stereo not drawn)	enzyme activity, inhibitor, Ellman	–	32.3 µM
NNC(=O)c1ccc(-n2nc(-c3ccccc3O)nc2-c2ccccc2O)cc1	–	–	0.31 ± 0.02 µM
COc1c(OC(=O)N(C)c2cccc(C)c2)cc2oc3cc4c(c(O)c3c(=O)c2c1CC=C(C)C)C=CC(C)(C)O4	enzyme activity, inhibitor	–	> 100 µM
O=S(=O)(CCc1cn(-c2cnc3ccccc3c2)nn1)N1CCc2ccccc2C1	enzyme activity, inhibitor	–	2.18 µM
O=c1[nH]c2c(O)cccc2c2cc3c(c(O)c12)OCO3	enzyme activity, inhibitor	no inhibition observed	107 ± 2.45 µM
COc1ccc2[nH]cc(CCNS(=O)(=O)CCc3cn(-c4cc(C)cc(C)c4)nn3)c2c1	enzyme activity, inhibitor	–	4.36 µM
O=C1c2c(O)cc(O)cc2O[C@@]2(c3ccc(O)cc3)Oc3cc(O)c4c(=O)c(O)c(-c5ccc(O)c(O)c5)oc4c3[C@@]12O	enzyme activity, inhibitor, Ellman	–	> 50 µM
COc1cc2c(cc1OC)C(=O)/C(=C\c1ccc(N3CCCC3)cc1)C2	enzyme activity, inhibitor, Ellman	–	64 µM
O=C1c2c(O)cc(O)cc2O[C@H](c2ccc(O)c(O)c2)[C@H]1O	enzyme activity, inhibitor, Ellman	–	43.9 µM
COc1cc2c(cc1OC)C(=O)C(=Cc1ccc(N3CC[N+](C)(C)CC3)cc1)C2	enzyme activity, inhibitor, Ellman	–	0.1 µM
O=C(O)CCCC(=O)O	–	–	893 µM

Compound	assay	conditions	IC50
O=C1c2c(O)cc(O)cc2OC2(c3ccc(O)cc3)Oc3cc4oc(-c5ccc(O)c(O)c5)c(O)c(=O)c4c(O)c3C12O (racemic)	–	–	4.55 ± 0.36 µM
O=C(NCc1ccc[n+](Cc2ccc(Cl)cc2Cl)c1)c1ccc(CN2C(=O)c3ccccc3C2=O)cc1	enzyme activity, inhibitor, Ellman	–	8.33 µM
COc1ccccc1N(C)C(=O)Oc1cc2oc3cc4c(c(O)c3c(=O)c2c(CC=C(C)C)c1OC)C=CC(C)(C)O4	enzyme activity, inhibitor	–	> 100 µM
O=C(NCc1ccc[n+](Cc2ccccc2Cl)c1)c1ccc(CN2C(=O)c3ccccc3C2=O)cc1	enzyme activity, inhibitor, Ellman	–	2.34 µM
CCN(CCCCOc1ccc(CCC(=O)N2CCC(Cc3ccccc3)CC2)cc1OC)Cc1ccccc1	enzyme activity, inhibitor, Ellman	–	5.7 µM
O=C1C=C(OCCCn2cc(CNc3ccc4nccnc4c3)nn2)C(=O)c2ccccc21	enzyme activity, inhibitor, Ellman	–	16.2 µM
CCCCC/C=C/CCCCCCCC(O)C(O)C(CO[C@@H]1O[C@H](CO)[C@@H](O)[C@H](O)[C@H]1O)NC(=O)C(O)CCCCCCCCCCCCCCCCCCCCCC (stereo partly drawn)	enzyme activity	–	463 µM
COc1cc2c(cc1OC)C(=O)/C(=C\c1ccc([N+](C)(C)C)cc1)C2	enzyme activity, inhibitor	–	6 µM
O=C1c2c(O)cc(O)cc2O[C@]2(c3ccc(O)c(O)c3)Oc3cc(O)c4c(=O)c(O)c(-c5ccc(O)cc5)oc4c3[C@]12O	enzyme activity, inhibitor, Ellman	–	10.7 µM
Cc1ccc(-c2csc(NC3=NC(=O)/C(=C\c4cccs4)S3)n2)cc1	enzyme activity, inhibitor, Ellman	–	0.174 µM
S=C(NCc1ccccn1)NCc1ccccn1	enzyme activity, inhibitor	–	317 µM
Cc1nc2ccc(NCc3cn(CCCCCCOC4=CC(=O)c5ccccc5C4=O)nn3)cc2nc1C	enzyme activity, inhibitor, Ellman	–	9 µM
CC(=O)C(=NNc1ccc2c(C)cc(=O)oc2c1)N1CCCCC1	enzyme activity, inhibitor, Ellman	–	46.2 µM
OC1C=C2C3CN(Cc4cc5c(cc43)OCO5)C2CC1O (stereo not drawn)	enzyme activity, inhibitor	–	801 µM
CC(=O)C(Cl)=NNc1ccc2c(C)cc(=O)oc2c1	enzyme activity, inhibitor, Ellman	–	42.5 µM
COc1cc2c(cc1OC)C1C(O)C(OC)C(O)C3=CC[N+](CCl)(C2)C31 (stereo not drawn)	enzyme activity, inhibitor	no inhibition observed	264.86 ± 0.23 µM
CC(=O)C1=NN(c2ccc3c(C)cc(=O)oc3c2)C(=O)C(Cc2ccccc2)N1 (stereo not drawn)	enzyme activity, inhibitor, Ellman	–	442 µM
O=C1c2c(O)cc(O)cc2O[C@@]2(c3ccc(O)c(O)c3)Oc3cc(O)c4c(=O)c(O)c(-c5ccc(O)c(O)c5)oc4c3[C@@]12O	enzyme activity, inhibitor, Ellman	–	> 50 µM

Repeated from above:
Compound	assay	conditions	IC50
COc1ccc(O)c(/C=N/N2C(=O)c3ccccc3NC2c2cc(OC)ccc2O)c1 (stereo not drawn)	enzyme activity, inhibitor, Ellman	–	32.3 µM
NNC(=O)c1ccc(-n2nc(-c3ccccc3O)nc2-c2ccccc2O)cc1	–	–	0.31 ± 0.02 µM
COc1c(OC(=O)N(C)c2cccc(C)c2)cc2oc3cc4c(c(O)c3c(=O)c2c1CC=C(C)C)C=CC(C)(C)O4	enzyme activity, inhibitor	–	> 100 µM
O=S(=O)(CCc1cn(-c2cnc3ccccc3c2)nn1)N1CCc2ccccc2C1	enzyme activity, inhibitor	–	2.18 µM
O=c1[nH]c2c(O)cccc2c2cc3c(c(O)c12)OCO3	enzyme activity, inhibitor	no inhibition observed	107 ± 2.45 µM
COc1ccc2[nH]cc(CCNS(=O)(=O)CCc3cn(-c4cc(C)cc(C)c4)nn3)c2c1	enzyme activity, inhibitor	–	4.36 µM
